{"data": "Published values from different studies", "note": "Lines come from different studies, so protocols differ. “And” joins repeats or separate records; there may be more than shown. ± gives the spread as reported. Ends that are not written are not given here."}
{"Molecule": "O=C(NC1CC(=O)N(Cc2cccc(F)c2)C1)c1n[nH]c2c1CCCC2 (stereo not shown)", "target or system": "Lassa mammarenavirus", "test": "viral replication", "system": "Huh-7", "conditions": "10 µM, 72 h", "quantity": "remaining activity", "value": "66%"}
{"Molecule": "O=C(NCCCN1CCCCCC1)c1ccc2c(c1)sc1nc(-c3ccccc3)cn12", "target or system": "SARS-CoV-2", "test": "cytopathic effect, cell-based CPE", "system": "USA_WA1/2020", "conditions": "round 2, 5-point dilution", "quantity": "AC50", "value": "12.6 µM"}
{"Molecule": "Cc1cc(/C=C/C#N)cc(C)c1Nc1ccnc(Nc2ccc(C#N)cc2)n1", "target or system": "HIV-1", "test": "viral replication, single-round infection", "system": "RT mutant G190S", "quantity": "EC50", "value": "0.0001 ± 1e-05 µM"}
{"Molecule": "CCC(C)N(Cc1cccnc1)Cc1c[nH]nc1-c1ccc(F)cc1 (stereo not shown)", "target or system": "Lassa mammarenavirus", "test": "viral replication", "system": "Huh-7", "conditions": "10 µM, 72 h", "quantity": "remaining activity", "value": "40%"}
{"Molecule": "Cc1cc(/C=C/C#N)cc(C)c1Nc1nc(Nc2ccc(/C=C/C#N)cc2)ncc1N", "target or system": "HIV-1", "test": "viral replication, single-round infection", "system": "RT mutant V106A/L234I", "quantity": "EC50", "value": "< 0.002 µM"}
{"Molecule": "GsMTx4", "target or system": "stretch-activated cation channel, rat", "test": "ion current, outside-out patch clamp", "system": "rat astrocytes", "conditions": "dose not given, holding -50 mV, 11 pressure steps", "quantity": "SAC current during perfusion", "value": "0.17 ± 0.02 pA"}
{"Molecule": "SFIEDLLFNKVTLAD", "target or system": "human CD4 T cells", "test": "AIM", "system": "peptide", "quantity": "responding donors", "value": "17%"}
{"Molecule": "CC1CCCCN1CCCNC(=O)c1cc(Sc2ccc(Cl)cc2)nc2ccccc12 (stereo not shown)", "target or system": "SARS-CoV-2", "test": "cytopathic effect", "system": "USA_WA1/2020", "conditions": "first round 5-point", "quantity": "AC50", "value": "6.31 µM"}
{"Molecule": "NC(=O)CCNC(=O)c1ccccc1S", "target or system": "HIV-1", "test": "viral replication", "system": "human PBMC, subtype E CMU02, CCR5-tropic clinical isolate", "quantity": "EC50", "value": "3.28 ± 1.47 µM"}
{"Molecule": "Cn1c(Cn2ccc(C(F)(F)F)c(Oc3cc(Cl)cc(C#N)c3)c2=O)n[nH]c1=O", "target or system": "HIV-1", "test": "viral replication, single-round infection", "system": "RT mutant E40K", "quantity": "EC50", "value": "0.0015 ± 0.0005 µM"}
{"Molecule": "CCCCN(CCCC)CCCNC(=O)c1ccc2nc(N3CCCCC3)sc2c1", "target or system": "SARS-CoV-2", "test": "cytopathic effect", "system": "USA_WA1/2020", "conditions": "retest, 8-point, duplicates", "quantity": "maximum response", "value": "86.5%"}
{"Molecule": "Cc1nc2n(n1)CC(=O)N[C@@H](C(C)C)CN(C(=O)C1CCC1)CC(=O)N[C@@H](CC(C)C)c1nc(cs1)C(=O)N[C@H]2Cc1ccccc1", "target or system": "Lassa mammarenavirus", "test": "viral replication", "system": "Huh-7", "conditions": "10 µM, 72 h", "quantity": "remaining activity", "value": "81%"}
{"Molecule": "KIYSKHTPI", "test": "AIM", "system": "peptide, CD8+ T cells from PBMC, human donors", "conditions": "HLA-B*08:01 restricted, unit not given", "how to read": "reference: positive over tested donors", "quantity": "frequency of responding donors", "value": 20}
{"Molecule": "COc1ccc2cc3[n+](cc2c1OC)CCc1cc2c(cc1-3)OCO2", "target or system": "SARS-CoV-2 spike protein", "system": "Vero C1008", "conditions": "5 µg/mL", "quantity": "inhibition", "value": "86.6 ± 1.5%"}
{"Molecule": "Cc1ccc(Cl)cc1N1CCN(CCCNc2ncnc3onc(-c4ccc(F)cc4)c23)CC1", "target or system": "SARS-CoV-2", "test": "cytopathic effect", "system": "USA_WA1/2020", "conditions": "round 1, 5-point", "quantity": "efficacy", "value": "72.1%"}
{"Molecule": "O=C(Nc1cccc(-c2cc3ccccc3[nH]2)c1)C1CCN(C(=O)C2CC=CCC2)CC1 (stereo not shown)", "target or system": "Lassa mammarenavirus", "test": "viral replication", "system": "Huh-7", "conditions": "10 µM, 72 h", "quantity": "remaining activity", "value": "55%"}
{"Molecule": "O=C1Nc2ccc(Cl)cc2[C@@](C#CC2CC2)(C(F)(F)F)O1", "target or system": "HIV-1", "test": "viral replication, single-round infection", "system": "RT mutant D67E", "quantity": "EC50", "value": "0.0037 ± 0.0007 µM"}
{"Molecule": "O=C1CCC(N2C(=O)c3cccc4c(Cc5cnn(C6CCNCC6)c5)ccc2c34)C(=O)N1 (stereo not shown)", "target or system": "human PBMC", "test": "cytotoxicity", "quantity": "IC50", "value": "> 10 µM"}
{"Molecule": "Cc1cn([C@H]2C[C@H](N=[N+]=[N-])[C@@H](CO)O2)c(=O)[nH]c1=O", "target or system": "HIV-1", "test": "viral replication", "system": "human PBMC, subtype E 93TH073, dual-tropic clinical isolate", "quantity": "EC50", "value": "0.0102 ± 0.00636 µM"}
{"Molecule": "KASMPTTIA", "test": "AIM", "system": "peptide, CD8+ T cells from PBMC, human donors", "conditions": "HLA-A*30:01 restricted, unit not given", "how to read": "reference: positive over tested donors", "quantity": "frequency of responding donors", "value": 100}
{"Molecule": "COP(=S)(OC)Oc1ccc([N+](=O)[O-])c(C)c1", "target or system": "rat CYP2D", "test": "bufuralol 1'-hydroxylation", "system": "liver microsomes", "conditions": "concentration not given", "quantity": "Vmax", "value": "0.94 ± 0.14 nmol/min/mg protein"}
{"Molecule": "Cc1cc(C(C)(C)CC(C)(C)C)ccc1OCCOCC[N+](C)(C)Cc1ccccc1.[Cl-]", "target or system": "HeLa", "test": "Ebola VLP entry", "quantity": "maximal inhibition", "value": "69%"}
{"Molecule": "COc1cc2c(cc1OCC1CC1)NC(=O)C21CCN(c2cc(NC3CC3)ncn2)CC1", "target or system": "SARS-CoV-2", "test": "cytopathic effect", "system": "USA_WA1/2020", "conditions": "round 1, 5-point", "quantity": "maximum response", "value": "76.5%"}
{"Molecule": "AVTANVNALLSTDGN", "target or system": "human CD4 T cells", "test": "AIM", "system": "peptide", "quantity": "responding donors", "value": "7%"}
{"Molecule": "CCCC(=O)OCSc1ccccc1C(=O)NCCC(N)=O", "target or system": "HIV-1", "test": "viral replication", "system": "human PBMC, subtype F 93BR020, dual-tropic clinical isolate", "quantity": "EC50", "value": "2.75 ± 1.07 µM"}
{"Molecule": "QPLRKLCILHRNPGRCYQKIPAFYYNQKKKQCEGFTWSGCGGNSNRFKTIEECRRTCIRK (dendrotoxin I; ends and bridges not checked; cysteine pairing not given here; sequence looked up)", "target or system": "maxi-KCa channel, rat muscle", "test": "channel block, planar bilayer single-channel", "conditions": "460 nM, internal", "quantity": "time in long-lived DTX substate", "value": "~97%"}
{"Molecule": "CCN(CC)CCNC(=O)c1cc(-c2ccc(Br)s2)nc2ccccc12", "target or system": "SARS-CoV-2", "test": "cytopathic effect, cell-based CPE", "system": "USA_WA1/2020", "conditions": "round 1, 5-point dilution", "quantity": "AC50", "value": "3.55 µM"}
{"Molecule": "YMSALNHTKKWKYPQ", "target or system": "human CD4 T cells", "test": "AIM", "system": "peptide", "quantity": "responding donors", "value": "9%"}
{"Molecule": "CC(C)Nc1cc(-c2ccc3c(c2)OCO3)nc(N)n1", "target or system": "Lassa mammarenavirus", "test": "viral replication", "system": "Huh-7", "conditions": "10 µM, 72 h", "quantity": "remaining activity", "value": "30%"}
{"Molecule": "YADSFVIRGDEVRQI", "target or system": "human CD4 T cells", "test": "AIM", "system": "peptide", "quantity": "responding donors", "value": "8%"}
{"Molecule": "CNC(=O)[C@@H](NC(=O)[C@H](CC(C)C)[C@H](O)C(=O)NO)C(C)(C)C", "target or system": "human fibrinogen", "test": "SDS-PAGE", "system": "Daboia russelii", "conditions": "concentration not given, unit not given, together with: WB venom", "how to read": "reference: untreated fibrinogen", "quantity": "remaining fibrinogen γ chain", "value": 0.338}
{"Molecule": "Nc1ncnc2c([C@@H]3N[C@H](CO)[C@@H](O)[C@H]3O)c[nH]c12", "target or system": "Marburg virus", "test": "antibody staining", "system": "HeLa, Musoke", "conditions": "25 µM", "quantity": "antigen-positive cells", "value": "0.5% and 3%"}
{"Molecule": "LPFAMGIIAM", "test": "AIM", "system": "peptide, CD8+ T cells from PBMC, human donors", "conditions": "dose not given", "quantity": "response magnitude per positive donor", "value": 107}
{"Molecule": "CC(C)(C)N1CCC(c2ccccc2)(c2ccccc2)CC1", "target or system": "SARS-CoV-2", "test": "cytopathic effect, cell-based CPE", "system": "USA_WA1/2020", "conditions": "round 1, 5-point dilution", "quantity": "AC50", "value": "10 µM"}
{"Molecule": "TPINLVRDL", "target or system": "human PBMC CD8+ T cells", "test": "T cell response", "system": "peptide", "quantity": "positive donors", "value": "1 donors"}
{"Molecule": "O=C(NCCCN1CCCCC1)c1cc(Sc2ccc(Cl)cc2)nc2ccccc12", "target or system": "SARS-CoV-2", "test": "cytopathic effect, cell-based CPE", "system": "USA_WA1/2020", "conditions": "round 2, 5-point dilution", "quantity": "maximal response", "value": "98.9%"}
{"Molecule": "CCc1c(C(=O)C(N)=O)c2c(OCC(=O)O)cccc2n1Cc1ccccc1", "system": "TN population, mouse", "conditions": "intravenous, 90 µg/mouse, 24 h, preincubated with venom, together with: Daboia russelii venom 2.5 x LD50", "quantity": "survival", "value": "100%"}
